Results gathered from unrelated publications.
Lines come from different studies, so protocols differ.
UniProt Q9HBY8, sequence (whole entry, looked up): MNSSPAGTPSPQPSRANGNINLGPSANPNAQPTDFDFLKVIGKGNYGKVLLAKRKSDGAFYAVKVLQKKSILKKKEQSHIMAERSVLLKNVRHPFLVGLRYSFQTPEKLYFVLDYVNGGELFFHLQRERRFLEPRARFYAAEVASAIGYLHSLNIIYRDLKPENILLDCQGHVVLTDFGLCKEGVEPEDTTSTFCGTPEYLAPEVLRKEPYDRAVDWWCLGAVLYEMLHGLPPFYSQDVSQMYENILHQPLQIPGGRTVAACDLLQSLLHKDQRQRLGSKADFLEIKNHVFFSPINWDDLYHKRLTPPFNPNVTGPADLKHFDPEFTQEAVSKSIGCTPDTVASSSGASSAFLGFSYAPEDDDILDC
UniProt Q9P2K8, sequence (whole entry, looked up): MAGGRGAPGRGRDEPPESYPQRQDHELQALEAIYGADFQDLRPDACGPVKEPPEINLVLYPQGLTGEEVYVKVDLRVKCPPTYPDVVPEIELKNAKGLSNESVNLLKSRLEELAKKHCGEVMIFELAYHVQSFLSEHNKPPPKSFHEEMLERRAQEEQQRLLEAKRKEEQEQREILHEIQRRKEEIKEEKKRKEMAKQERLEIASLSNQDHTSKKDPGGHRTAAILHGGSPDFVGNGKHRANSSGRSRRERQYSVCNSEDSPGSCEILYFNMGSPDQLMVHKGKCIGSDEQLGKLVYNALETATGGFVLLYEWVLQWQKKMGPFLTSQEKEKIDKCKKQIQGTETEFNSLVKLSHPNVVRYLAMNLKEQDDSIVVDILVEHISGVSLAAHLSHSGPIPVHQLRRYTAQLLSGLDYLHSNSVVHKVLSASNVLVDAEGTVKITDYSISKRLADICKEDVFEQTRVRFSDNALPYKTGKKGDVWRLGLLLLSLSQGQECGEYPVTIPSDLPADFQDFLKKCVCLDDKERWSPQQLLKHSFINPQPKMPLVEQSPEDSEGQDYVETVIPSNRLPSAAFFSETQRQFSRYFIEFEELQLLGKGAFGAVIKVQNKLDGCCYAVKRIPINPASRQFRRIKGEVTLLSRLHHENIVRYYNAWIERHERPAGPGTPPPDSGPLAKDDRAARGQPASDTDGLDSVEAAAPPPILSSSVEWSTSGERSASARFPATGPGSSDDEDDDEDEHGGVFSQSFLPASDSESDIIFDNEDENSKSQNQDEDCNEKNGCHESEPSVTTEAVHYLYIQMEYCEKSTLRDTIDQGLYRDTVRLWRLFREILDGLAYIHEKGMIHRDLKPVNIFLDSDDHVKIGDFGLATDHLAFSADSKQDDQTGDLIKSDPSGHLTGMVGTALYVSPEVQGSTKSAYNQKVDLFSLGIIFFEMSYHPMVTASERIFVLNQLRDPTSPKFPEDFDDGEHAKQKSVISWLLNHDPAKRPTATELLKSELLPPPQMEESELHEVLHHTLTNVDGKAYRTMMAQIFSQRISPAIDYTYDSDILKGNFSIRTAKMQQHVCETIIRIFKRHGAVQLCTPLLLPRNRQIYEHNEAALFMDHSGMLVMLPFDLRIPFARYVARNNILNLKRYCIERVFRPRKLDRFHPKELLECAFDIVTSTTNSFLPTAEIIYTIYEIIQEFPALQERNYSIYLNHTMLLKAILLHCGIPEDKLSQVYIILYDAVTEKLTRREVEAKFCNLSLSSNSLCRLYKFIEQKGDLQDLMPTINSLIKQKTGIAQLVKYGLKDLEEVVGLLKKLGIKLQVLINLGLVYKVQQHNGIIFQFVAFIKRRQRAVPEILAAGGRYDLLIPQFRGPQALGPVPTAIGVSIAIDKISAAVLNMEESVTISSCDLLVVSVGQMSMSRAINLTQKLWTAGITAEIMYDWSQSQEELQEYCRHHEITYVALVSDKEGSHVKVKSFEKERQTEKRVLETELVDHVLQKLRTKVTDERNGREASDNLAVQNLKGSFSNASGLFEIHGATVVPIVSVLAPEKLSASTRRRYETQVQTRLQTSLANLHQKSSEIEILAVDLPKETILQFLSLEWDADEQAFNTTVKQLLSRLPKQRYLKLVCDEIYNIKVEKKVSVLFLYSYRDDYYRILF
UniProt Q9P1W9, sequence (whole entry, looked up): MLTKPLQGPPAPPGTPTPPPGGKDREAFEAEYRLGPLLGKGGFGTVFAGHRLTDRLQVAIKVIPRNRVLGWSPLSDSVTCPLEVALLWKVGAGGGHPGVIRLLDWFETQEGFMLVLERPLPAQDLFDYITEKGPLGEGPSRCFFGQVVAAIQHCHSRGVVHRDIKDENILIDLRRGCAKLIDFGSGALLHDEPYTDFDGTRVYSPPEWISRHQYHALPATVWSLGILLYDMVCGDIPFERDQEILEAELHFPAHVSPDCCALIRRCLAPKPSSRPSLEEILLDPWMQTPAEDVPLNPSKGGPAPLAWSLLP

The compound remaining of O=C(N1CCCCC1)C12CC(c3ccccc3)(C1)C2 is reported as 83% (metabolic stability; human, liver microsomes; 2 µM, 25 min, pH 7.4).
With O=C(c1ccc(F)cc1)C1CCN(CCn2c(=O)[nH]c3ccccc3c2=O)CC1 the compound remaining was 64.5% (metabolic stability; dog, liver microsomes; 30 min).
With O=C(O)Cc1ccccc1Nc1c(Cl)cccc1Cl the compound remaining was 38% (metabolic stability; human, liver microsomes; 2 µM, 15 min, pH 7.4).
CC(C)[N+](C)(CCOC(=O)C1c2ccccc2Oc2ccccc21)C(C)C gave a compound remaining of 20.2% (metabolic stability; human, plasma; 1 h).
The compound remaining of C[C@@H](O)[C@H](NC(=O)[C@H](Cc1ccc(O)cc1)NC(=O)[C@H](Cc1ccc(O)cc1)NC(=O)[C@H](CO)NC(=O)[C@H](CCCNC(=N)N)NC(=O)[C@H](Cc1c[nH]cn1)NC(=O)[C@@H](N)Cc1c[nH]c2ccccc12)C(=O)N[C@@H](Cc1c[nH]c2ccccc12)C(=O)N[C@@H](CC(N)=O)C(=O)NCCCC[C@H](NC(=O)[C@H](CCCCNC(=O)[C@H](CC(N)=O)NC(=O)[C@H](Cc1c[nH]c2ccccc12)NC(=O)[C@@H](NC(=O)[C@H](Cc1ccc(O)cc1)NC(=O)[C@H](Cc1ccc(O)cc1)NC(=O)[C@H](CO)NC(=O)[C@H](CCCNC(=N)N)NC(=O)[C@H](Cc1c[nH]cn1)NC(=O)[C@@H](N)Cc1c[nH]c2ccccc12)[C@@H](C)O)NC(=O)[C@H](CC(N)=O)NC(=O)[C@H](Cc1c[nH]c2ccccc12)NC(=O)[C@@H](NC(=O)[C@H](Cc1ccc(O)cc1)NC(=O)[C@H](Cc1ccc(O)cc1)NC(=O)[C@H](CO)NC(=O)[C@H](CCCNC(=N)N)NC(=O)[C@H](Cc1c[nH]cn1)NC(=O)[C@@H](N)Cc1c[nH]c2ccccc12)[C@@H](C)O)C(=O)N[C@@H](CCCCN)C(=O)N[C@@H](CCCCN)C(N)=O is reported as 20% (chemical stability; human, serum; 20 µM, 4 h).
For O=C(Nc1ccc(CN2CCOCC2)c(C(F)(F)F)c1)c1ccc(C#Cc2cccc3cnccc23)cn1, the compound remaining was 81.6% (metabolic stability; mouse, liver microsomes; 10 min).
For COc1cc(-c2cncc3c2CN(C)Cc2cc(N4CCNCC4)ccc2-3)cc(OC)c1OC, the remaining activity was 104% (EIF2AK4 (Homo sapiens, UniProt Q9P2K8); enzyme activity, inhibitor; 1 µM).
Cc1ccc(CCC(=O)Nc2nnc(S(N)(=O)=O)s2)cc1 gave a compound remaining of 99.9% (metabolic stability; mouse, liver microsomes; 1 h).
With C[C@@H](O)[C@H](NC(=O)[C@H](Cc1ccc(O)cc1)NC(=O)[C@H](Cc1ccc(O)cc1)NC(=O)[C@H](CO)NC(=O)[C@H](CCCNC(=N)N)NC(=O)[C@H](Cc1c[nH]cn1)NC(=O)[C@@H](N)Cc1c[nH]c2ccccc12)C(=O)N[C@@H](Cc1c[nH]c2ccccc12)C(=O)N[C@@H](CC(N)=O)C(=O)NCCCC[C@H](NC(=O)[C@H](CC(N)=O)NC(=O)[C@H](Cc1c[nH]c2ccccc12)NC(=O)[C@@H](NC(=O)[C@H](Cc1ccc(O)cc1)NC(=O)[C@H](Cc1ccc(O)cc1)NC(=O)[C@H](CO)NC(=O)[C@H](CCCNC(=N)N)NC(=O)[C@H](Cc1c[nH]cn1)NC(=O)[C@@H](N)Cc1c[nH]c2ccccc12)[C@@H](C)O)C(=O)NCCCC[C@H](NC(=O)[C@H](CCCCNC(=O)[C@H](CC(N)=O)NC(=O)[C@H](Cc1c[nH]c2ccccc12)NC(=O)[C@@H](NC(=O)[C@H](Cc1ccc(O)cc1)NC(=O)[C@H](Cc1ccc(O)cc1)NC(=O)[C@H](CO)NC(=O)[C@H](CCCNC(=N)N)NC(=O)[C@H](Cc1c[nH]cn1)NC(=O)[C@@H](N)Cc1c[nH]c2ccccc12)[C@@H](C)O)NC(=O)[C@H](CC(N)=O)NC(=O)[C@H](Cc1c[nH]c2ccccc12)NC(=O)[C@@H](NC(=O)[C@H](Cc1ccc(O)cc1)NC(=O)[C@H](Cc1ccc(O)cc1)NC(=O)[C@H](CO)NC(=O)[C@H](CCCNC(=N)N)NC(=O)[C@H](Cc1c[nH]cn1)NC(=O)[C@@H](N)Cc1c[nH]c2ccccc12)[C@@H](C)O)C(=O)N[C@@H](CCCCN)C(=O)N[C@@H](CCCCN)C(=O)N[C@@H](CCCCN)C(N)=O the compound remaining was 33% (chemical stability; human, serum; 20 µM, 1 h).
With CNc1ncc2c(/C=C/C(=O)N3CCC(OC)CC3)nn(Cc3cccc(C(F)(F)F)c3)c2n1 the remaining activity was 102% (PIM2 (Homo sapiens, UniProt Q9P1W9); enzyme activity, inhibitor, radiometric; 1 µM).
The viability of Nc1ccn([C@@H]2O[C@H](CO)[C@@H](O)C2(F)F)c(=O)n1 is reported as 73.9% (MDA-MB-231; cell growth or viability, MTT; 0.625 µg/mL, 48 h).
The concentration of COc1cccc(-c2n[nH]c(SCc3ccccn3)n2)c1OC is reported as 4.1 ng/mL (female Sprague-Dawley rat, plasma; oral, 30 mg/kg, 24 h, single dose).
For C=CC(=O)N1CCC(COCC(=O)N2CCN(c3nc(-c4cnc(N)nc4C(F)F)nc(N4CCOC[C@@H]4C)n3)CC2)CC1, the remaining binding was 100% (SGK2 (Homo sapiens, UniProt Q9HBY8); binding, competition with immobilised ligand; 1 µM).
For COc1cc(-c2cc(C(C)=O)n3ccccc23)c(OC)cc1Cn1ccnc1, the compound remaining was 86% (metabolic stability; human, liver microsomes; 1 µM, 1 h, pH 7.4).
The compound remaining of CC(C)NCC(O)COc1cccc2ccccc12 (racemic) is reported as 65% (metabolic stability; human, liver microsomes; 2 µM, 40 min, pH 7.4).
C[C@@H](O)[C@H](NC(=O)[C@H](Cc1ccc(O)cc1)NC(=O)[C@H](Cc1ccc(O)cc1)NC(=O)[C@H](CO)NC(=O)[C@H](CCCNC(=N)N)NC(=O)[C@H](Cc1c[nH]cn1)NC(=O)[C@@H](N)Cc1c[nH]c2ccccc12)C(=O)N[C@@H](Cc1c[nH]c2ccccc12)C(=O)N[C@@H](CC(N)=O)C(N)=O has a compound remaining of 0.3% (chemical stability; human, serum; 20 µM, 4 h).
